Measurements from different studies.
Every numbered part comes from another study and shows a few of its results, in no order.

Block 1
Target: Histone acetyltransferase KAT6A, winged helix 2, GST fusion (KAT6A, Homo sapiens, UniProt Q92794, residues 85-181)
Technique: protein binding microarray
Molecule type: double-stranded DNA, one strand shown
Sample: in vitro
Concentration: not given
Setting: 8-mer, flanks averaged, mean of 2 arrays, mostly near background
Relative to: not given
Reading: higher = stronger binding
Endpoint: E-score
Target sequence (chain): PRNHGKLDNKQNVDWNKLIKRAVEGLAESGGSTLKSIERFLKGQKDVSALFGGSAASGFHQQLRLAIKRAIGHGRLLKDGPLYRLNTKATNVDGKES
Oligonucleotide = CGCGAGTA; result = 0.08
Oligonucleotide = CGTCCCAG; result = -0.0524
Oligonucleotide = ATCAACAG; result = 0.085
Oligonucleotide = GCAATCGA; result = -0.00333
Oligonucleotide = AATCATGA; result = 0.0919
Oligonucleotide = AAAGTGCA; result = -0.0924
Oligonucleotide = AGCCTCAT; result = -0.125
Oligonucleotide = GTGGAATA; result = -0.0857
Oligonucleotide = TGACTACA; result = -0.104
Oligonucleotide = CCACAACC; result = 0.146
Oligonucleotide = TACCACGA; result = 0.0314

Block 2
Target: Centromere-binding protein 1, full length, His-tagged (CBF1, Saccharomyces cerevisiae, UniProt P17106, residues 1-351)
UniProt P17106, sequence (whole entry, looked up): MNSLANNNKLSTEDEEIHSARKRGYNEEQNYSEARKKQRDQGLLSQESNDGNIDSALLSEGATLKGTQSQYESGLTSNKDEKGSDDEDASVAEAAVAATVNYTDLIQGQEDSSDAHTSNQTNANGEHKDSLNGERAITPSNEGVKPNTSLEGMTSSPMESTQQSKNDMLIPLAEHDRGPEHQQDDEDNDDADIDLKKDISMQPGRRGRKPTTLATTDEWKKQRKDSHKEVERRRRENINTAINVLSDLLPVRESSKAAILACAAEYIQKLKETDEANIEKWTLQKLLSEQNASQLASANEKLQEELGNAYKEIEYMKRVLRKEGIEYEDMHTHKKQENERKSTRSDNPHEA
Technique: competition protein-binding microarray
Molecule type: double-stranded DNA, one strand shown
Sample: in vitro
Concentration: 2 µM
Setting: whole 60-bp probe, lowest competitor level
Together with: Pho4 competitor, 0.05 µM
Reading: higher = stronger binding
Endpoint: fluorescence intensity
All sequences stand within: … GTCTTGATTCGCTTGACGCTGCTG
Oligonucleotide = CCGGTCAAGGTCTGGCACGTGGAGTCCAGGACATCC; result = 823 a.u.
Oligonucleotide = GTCTTGTCTCATTGATTTGTGGGTGTCCCCACTTCA; result = 82.4 a.u.
Oligonucleotide = AAATTACTAAGTTGCCATGTGGGTGACGCCGTATGA; result = 100 a.u.
Oligonucleotide = AAAGTCTGCGACAATCACGTGCTAAAGCTGGTCTCA; result = 5360 a.u.
Oligonucleotide = GAACAACTGTATTGCCACATGGGCAGACCAGATCGG; result = 85.1 a.u.
Oligonucleotide = AGTATGTTGGTCTTGGTCGTGCTGTAGGTTTTGAGT; result = 75.1 a.u.
Oligonucleotide = AAATTACTAAGTTGAACCGTGGGTGACGCCGTATGA; result = 69.1 a.u.

Block 3
Target: PABPC1L2, full length, GST fusion (mouse, UniProt A0ABA7IW68)
Technique: RNAcompete
Molecule type: RNA
Sample: in vitro
Concentration: 20 nM
Setting: 7-mer, probes averaged, single round
Relative to: mean of 7-mers
Reading: higher = stronger binding
Endpoint: 7-mer Z-score
Residues (chain): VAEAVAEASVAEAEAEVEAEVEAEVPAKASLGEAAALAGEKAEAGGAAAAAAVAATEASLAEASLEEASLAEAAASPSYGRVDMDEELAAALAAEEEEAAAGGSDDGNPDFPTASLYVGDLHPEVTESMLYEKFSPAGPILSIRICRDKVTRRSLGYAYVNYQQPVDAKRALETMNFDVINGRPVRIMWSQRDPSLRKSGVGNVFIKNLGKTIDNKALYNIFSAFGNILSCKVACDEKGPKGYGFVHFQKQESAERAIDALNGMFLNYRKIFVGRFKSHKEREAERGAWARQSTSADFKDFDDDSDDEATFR
Oligonucleotide = UUUCGAU; result = -0.26
Oligonucleotide = GUGCGCC; result = -0.11
Oligonucleotide = CCGUAUA; result = -0.139
Oligonucleotide = UCUGUCG; result = -0.304
Oligonucleotide = CAUAUCC; result = -0.184
Oligonucleotide = AACGGUA; result = 0.287
Oligonucleotide = UACAUUU; result = 0.0551
Oligonucleotide = CAACAAU; result = 0.191
Oligonucleotide = CAGUGAC; result = -0.0826

Other studies, line by line
Molecule = PhoQ, residues 284 288 289 292 302 303 HSSMNL; target = PhoP, residues 12 14 15 18 19 NFFVT (Escherichia coli, UniProt P23836); assay = Sort-seq, measured: YFP reporter; system = E. coli; setting = PhoQ-PhoP variant library, together with: 10 µM Mg2+; how to read = relative to: high Mg2+ state, higher = stronger signaling; endpoint = fold induction; result = 1.05

Some of these lines once more (block 1):
Oligonucleotide = ATCAACAG; result = 0.085
Oligonucleotide = GCAATCGA; result = -0.00333
Oligonucleotide = AATCATGA; result = 0.0919
Oligonucleotide = AAAGTGCA; result = -0.0924
